Experimental data gathered from unrelated publications.
Each numbered part is a random draw from the data of one study; scales do not carry over between parts. Several values in a cell are separate wells, animals, samples, runs or records.
UniProt P31152, sequence (whole entry, looked up): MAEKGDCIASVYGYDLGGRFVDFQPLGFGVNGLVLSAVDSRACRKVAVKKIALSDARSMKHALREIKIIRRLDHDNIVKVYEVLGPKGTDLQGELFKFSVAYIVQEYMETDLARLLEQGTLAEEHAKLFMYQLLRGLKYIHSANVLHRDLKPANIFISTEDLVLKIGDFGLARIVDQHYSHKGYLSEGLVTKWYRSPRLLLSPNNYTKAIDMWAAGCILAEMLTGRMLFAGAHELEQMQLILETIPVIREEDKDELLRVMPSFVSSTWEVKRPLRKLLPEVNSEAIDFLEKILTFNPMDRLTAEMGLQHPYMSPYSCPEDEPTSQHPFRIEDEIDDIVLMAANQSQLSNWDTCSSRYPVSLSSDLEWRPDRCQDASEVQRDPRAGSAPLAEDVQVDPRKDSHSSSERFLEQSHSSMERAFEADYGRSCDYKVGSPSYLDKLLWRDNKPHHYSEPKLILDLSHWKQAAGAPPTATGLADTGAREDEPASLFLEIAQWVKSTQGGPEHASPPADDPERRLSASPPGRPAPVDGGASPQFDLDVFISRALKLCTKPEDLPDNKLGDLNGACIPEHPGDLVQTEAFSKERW
UniProt O95835, sequence (whole entry, looked up): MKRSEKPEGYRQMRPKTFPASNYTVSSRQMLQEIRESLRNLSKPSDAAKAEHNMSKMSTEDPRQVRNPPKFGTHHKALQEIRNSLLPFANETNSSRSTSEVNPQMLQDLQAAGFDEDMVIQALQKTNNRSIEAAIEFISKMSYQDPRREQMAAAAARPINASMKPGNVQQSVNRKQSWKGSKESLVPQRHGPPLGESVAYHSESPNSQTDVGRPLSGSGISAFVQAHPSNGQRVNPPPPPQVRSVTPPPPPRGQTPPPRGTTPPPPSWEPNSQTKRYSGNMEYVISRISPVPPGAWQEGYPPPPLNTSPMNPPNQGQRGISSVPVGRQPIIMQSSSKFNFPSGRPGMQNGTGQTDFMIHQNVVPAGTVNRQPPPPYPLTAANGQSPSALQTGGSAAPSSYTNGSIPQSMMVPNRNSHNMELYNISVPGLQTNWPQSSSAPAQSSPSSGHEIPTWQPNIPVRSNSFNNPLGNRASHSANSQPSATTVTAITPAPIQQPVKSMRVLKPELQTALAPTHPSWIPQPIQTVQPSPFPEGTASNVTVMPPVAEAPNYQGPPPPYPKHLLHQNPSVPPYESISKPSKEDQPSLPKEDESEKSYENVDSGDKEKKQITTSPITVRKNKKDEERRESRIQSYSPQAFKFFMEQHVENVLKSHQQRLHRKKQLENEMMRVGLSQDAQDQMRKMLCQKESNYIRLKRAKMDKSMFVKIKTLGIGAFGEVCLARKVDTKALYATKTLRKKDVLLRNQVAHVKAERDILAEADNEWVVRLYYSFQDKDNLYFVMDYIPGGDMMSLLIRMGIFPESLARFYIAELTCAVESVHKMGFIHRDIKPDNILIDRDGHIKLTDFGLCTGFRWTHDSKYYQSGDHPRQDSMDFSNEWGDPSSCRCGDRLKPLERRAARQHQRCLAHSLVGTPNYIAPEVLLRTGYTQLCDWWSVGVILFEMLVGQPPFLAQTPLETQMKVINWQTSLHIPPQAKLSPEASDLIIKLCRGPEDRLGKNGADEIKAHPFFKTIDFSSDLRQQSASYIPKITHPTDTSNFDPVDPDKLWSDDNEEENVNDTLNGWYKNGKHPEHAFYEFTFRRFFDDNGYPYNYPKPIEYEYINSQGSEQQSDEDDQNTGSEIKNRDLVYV
UniProt Q00535, sequence (whole entry, looked up): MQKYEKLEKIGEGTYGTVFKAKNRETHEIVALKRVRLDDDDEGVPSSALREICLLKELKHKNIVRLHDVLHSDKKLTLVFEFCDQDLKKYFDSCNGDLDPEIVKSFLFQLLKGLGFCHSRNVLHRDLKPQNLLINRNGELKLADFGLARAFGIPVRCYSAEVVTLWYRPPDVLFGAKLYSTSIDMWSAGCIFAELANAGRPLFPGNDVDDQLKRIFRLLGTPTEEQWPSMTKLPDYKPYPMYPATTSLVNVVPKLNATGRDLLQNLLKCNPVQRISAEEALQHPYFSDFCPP
UniProt Q8NFD2, sequence (whole entry, looked up): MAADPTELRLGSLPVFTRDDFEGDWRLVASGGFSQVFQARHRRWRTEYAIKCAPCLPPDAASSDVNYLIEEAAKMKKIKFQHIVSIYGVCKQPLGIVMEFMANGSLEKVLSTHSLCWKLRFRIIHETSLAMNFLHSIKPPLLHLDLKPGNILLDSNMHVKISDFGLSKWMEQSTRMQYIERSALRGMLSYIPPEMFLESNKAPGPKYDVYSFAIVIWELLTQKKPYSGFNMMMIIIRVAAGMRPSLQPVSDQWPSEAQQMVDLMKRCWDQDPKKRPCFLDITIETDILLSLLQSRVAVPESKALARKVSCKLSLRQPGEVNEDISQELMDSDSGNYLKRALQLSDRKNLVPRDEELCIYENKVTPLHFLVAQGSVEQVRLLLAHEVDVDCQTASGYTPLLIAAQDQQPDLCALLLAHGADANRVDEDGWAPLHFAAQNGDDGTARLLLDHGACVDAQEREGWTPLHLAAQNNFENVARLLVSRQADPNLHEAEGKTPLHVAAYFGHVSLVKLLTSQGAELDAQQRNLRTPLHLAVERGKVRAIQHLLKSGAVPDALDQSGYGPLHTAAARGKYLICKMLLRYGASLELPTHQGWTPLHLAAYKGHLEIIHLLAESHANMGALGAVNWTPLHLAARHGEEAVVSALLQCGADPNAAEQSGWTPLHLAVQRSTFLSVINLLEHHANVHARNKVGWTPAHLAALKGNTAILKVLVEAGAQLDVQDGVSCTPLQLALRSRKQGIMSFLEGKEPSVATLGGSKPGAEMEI

Sample 1
SMILES: O=C(NS(=O)(=O)c1ccc(NCC2CCOCC2)c([N+](=O)[O-])c1)c1ccc(N2CCN(Cc3ccc(C(F)(F)F)cc3-c3ccc(Cl)cc3)CC2)cc1Oc1cnc2[nH]ccc2c1
Effect on: cell-free assay
Method: competition with immobilised ligand
Concentration: 1 µM
Endpoint: remaining binding
Ribosomal protein S6 kinase alpha-5, C-terminal kinase domain (RPS6KA5, Homo sapiens, UniProt O75582): 95%
Tyrosine-protein kinase JAK1, JH2 (JAK1, Homo sapiens, UniProt P23458): 100%
Phosphatidylinositol 4-phosphate 5-kinase type-1 alpha (PIP5K1A, Homo sapiens, UniProt Q99755): 93%
Ankyrin repeat and protein kinase domain-containing protein 1 (ANKK1, Homo sapiens, UniProt Q8NFD2): 77%
Phosphatidylinositol 4,5-bisphosphate 3-kinase catalytic subunit alpha isoform (PIK3CA, Homo sapiens, UniProt P42336, H1047L): 85%
Casein kinase II subunit alpha (CSNK2A1, Homo sapiens, UniProt P68400): 83%
Receptor-type tyrosine-protein kinase FLT3 (FLT3, Homo sapiens, UniProt P36888, N841I): 100%
Serine/threonine-protein kinase LATS1 (LATS1, Homo sapiens, UniProt O95835): 100%
Serine/threonine-protein kinase B-raf (BRAF, Homo sapiens, UniProt P15056): 100%
Tyrosine-protein kinase SYK (SYK, Homo sapiens, UniProt P43405): 99%
Angiopoietin-1 receptor (TEK, Homo sapiens, UniProt Q02763): 80%
Cyclin-dependent kinase 5 (CDK5, Homo sapiens, UniProt Q00535): 81%
Mitotic checkpoint serine/threonine-protein kinase BUB1 (BUB1, Homo sapiens, UniProt O43683): 100%
LIM domain kinase 1 (LIMK1, Homo sapiens, UniProt P53667): 85%
Membrane-associated tyrosine- and threonine-specific cdc2-inhibitory kinase (PKMYT1, Homo sapiens, UniProt Q99640): 90%
Mitogen-activated protein kinase 4 (MAPK4, Homo sapiens, UniProt P31152): 97%

Sample 2
Target: Beta-1 adrenergic receptor (ADRB1, Homo sapiens, UniProt P08588)
UniProt P08588, sequence (whole entry, looked up): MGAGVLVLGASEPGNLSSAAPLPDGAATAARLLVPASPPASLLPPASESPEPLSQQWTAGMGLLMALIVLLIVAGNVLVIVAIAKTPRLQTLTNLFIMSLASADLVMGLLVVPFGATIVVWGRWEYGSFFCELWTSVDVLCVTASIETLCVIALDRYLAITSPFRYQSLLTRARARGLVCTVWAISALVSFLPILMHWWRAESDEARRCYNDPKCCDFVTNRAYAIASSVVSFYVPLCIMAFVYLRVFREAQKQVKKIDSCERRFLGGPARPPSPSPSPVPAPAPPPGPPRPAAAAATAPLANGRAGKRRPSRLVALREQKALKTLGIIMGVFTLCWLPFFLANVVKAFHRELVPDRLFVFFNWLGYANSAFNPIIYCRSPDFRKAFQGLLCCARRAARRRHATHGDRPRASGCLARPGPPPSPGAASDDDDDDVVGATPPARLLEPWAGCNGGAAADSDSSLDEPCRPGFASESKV
Action: agonist
Endpoint: Emax
CC(COc1ccccc1)NC(C)C(O)c1ccc(O)cc1 (stereo not shown): 90.3%
COc1ccc2[nH]cc(C3CCN(CC(O)COc4ccccc4)CC3)c2c1 (stereo not shown): 85.3%
COC(=O)CCc1ccc(OCC(O)CNC(C)C)cc1 (stereo not shown): 35.1%
COc1ccccc1N1CCN(CCCNc2c(C)c(=O)n(C)c(=O)n2C)CC1: 82.7%
COc1ccccc1N1CCN(CCCCN2C(=O)CCC2=O)CC1: 66.1%
OC(COc1ccccc1-c1ccncc1)CN1CCOCC1 (stereo not shown): 129%
CN1CCC2(CC1)CCN(Cc1ccc(OCC(O)CN3CCCCC3)cc1)C2 (stereo not shown): 63%
CC#CCn1cc2c3c(cccc31)[C@H](CC(C)C)N[C@H](C(=O)NCCC)C2: 102%

Sample 3
Target: Serine/threonine-protein kinase 3 (STK3, Homo sapiens, UniProt Q13188)
UniProt Q13188, sequence (whole entry, looked up): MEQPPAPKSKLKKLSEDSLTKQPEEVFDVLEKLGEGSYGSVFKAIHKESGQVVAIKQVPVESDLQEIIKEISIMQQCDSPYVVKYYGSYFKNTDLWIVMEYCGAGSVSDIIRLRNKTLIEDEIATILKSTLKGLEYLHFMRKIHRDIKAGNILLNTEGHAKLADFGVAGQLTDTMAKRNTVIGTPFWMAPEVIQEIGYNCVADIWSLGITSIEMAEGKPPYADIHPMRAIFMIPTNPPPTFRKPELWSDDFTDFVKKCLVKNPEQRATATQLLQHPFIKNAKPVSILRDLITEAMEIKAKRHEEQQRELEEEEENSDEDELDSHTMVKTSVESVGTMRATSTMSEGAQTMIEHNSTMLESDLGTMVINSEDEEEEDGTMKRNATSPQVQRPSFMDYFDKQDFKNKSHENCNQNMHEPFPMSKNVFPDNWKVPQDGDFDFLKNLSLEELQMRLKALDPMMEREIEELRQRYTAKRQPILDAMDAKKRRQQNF
Effect on: enzyme activity
Action: inhibitor
Concentration: 0.5 µM
Baseline: control
Endpoint: remaining activity
O=C1Nc2ccccc2/C1=C\c1c(Cl)[nH]c2ccccc12: 89.1%
c1ccc2c(-c3ccncc3)c[nH]c2c1: 112%
O=C1Cc2c([nH]c3ccc(Br)cc23)-c2ccccc2N1: 83.2%
N#Cc1cnc2cnc(NCc3cccnc3)cc2c1Nc1ccc(F)c(Cl)c1: 94.3%
c1ccc(-c2n[nH]c3c2oc2ccccc23)cc1: 49.6%
O=Nc1c(-c2c(O)[nH]c3cc(Br)ccc23)[nH]c2ccccc12: 20.5%
CCCNC(=O)Nc1ccc(Oc2ncnc3cc(OC)c(OC)cc23)cc1Cl: 85%
O=C1Nc2ccc(Br)cc2/C1=C/c1cc2c([nH]1)CCCC2: 60.7%
Cc1ccc(S(=O)(=O)/C=C/C#N)cc1: 93.6%
Oc1cccc(-c2nc(N3CCOCC3)c3oc4ncccc4c3n2)c1: 105%
O=C(c1cc2cc(O)ccc2[nH]1)c1cc2cc(O)ccc2[nH]1: 41.4%
CN1CCN(c2ccc3nc(-c4c(N)c5c(F)cccc5[nH]c4=O)[nH]c3c2)CC1: 34.4%
COc1ccc(COc2ccc(Cc3cnc(N)nc3N)cc2OC)cc1: 98.4%
O=C1NC(=O)c2c1c1c3ccccc3[nH]c1c1[nH]c3cc(Br)ccc3c21: 55.8%
COc1cccc(-c2cc(=O)c3ccccc3o2)c1N: 97.1%
COc1ccc2c(c1)c(C1=C(c3c[nH]c4ccccc34)C(=O)NC1=O)cn2CCCN(C)C: 72.2%
CCCCc1c(-c2ccc(OC)cc2)[nH]c2nccnc12: 87%

Sample 4
Compound: C=CCc1ccc(O)c(-c2ccc(O)c(CC=C)c2)c1
Target: Anoctamin-1 (ANO1, Homo sapiens, UniProt Q5XXA6, del476-501)
UniProt Q5XXA6, sequence (whole entry, unmodified, looked up): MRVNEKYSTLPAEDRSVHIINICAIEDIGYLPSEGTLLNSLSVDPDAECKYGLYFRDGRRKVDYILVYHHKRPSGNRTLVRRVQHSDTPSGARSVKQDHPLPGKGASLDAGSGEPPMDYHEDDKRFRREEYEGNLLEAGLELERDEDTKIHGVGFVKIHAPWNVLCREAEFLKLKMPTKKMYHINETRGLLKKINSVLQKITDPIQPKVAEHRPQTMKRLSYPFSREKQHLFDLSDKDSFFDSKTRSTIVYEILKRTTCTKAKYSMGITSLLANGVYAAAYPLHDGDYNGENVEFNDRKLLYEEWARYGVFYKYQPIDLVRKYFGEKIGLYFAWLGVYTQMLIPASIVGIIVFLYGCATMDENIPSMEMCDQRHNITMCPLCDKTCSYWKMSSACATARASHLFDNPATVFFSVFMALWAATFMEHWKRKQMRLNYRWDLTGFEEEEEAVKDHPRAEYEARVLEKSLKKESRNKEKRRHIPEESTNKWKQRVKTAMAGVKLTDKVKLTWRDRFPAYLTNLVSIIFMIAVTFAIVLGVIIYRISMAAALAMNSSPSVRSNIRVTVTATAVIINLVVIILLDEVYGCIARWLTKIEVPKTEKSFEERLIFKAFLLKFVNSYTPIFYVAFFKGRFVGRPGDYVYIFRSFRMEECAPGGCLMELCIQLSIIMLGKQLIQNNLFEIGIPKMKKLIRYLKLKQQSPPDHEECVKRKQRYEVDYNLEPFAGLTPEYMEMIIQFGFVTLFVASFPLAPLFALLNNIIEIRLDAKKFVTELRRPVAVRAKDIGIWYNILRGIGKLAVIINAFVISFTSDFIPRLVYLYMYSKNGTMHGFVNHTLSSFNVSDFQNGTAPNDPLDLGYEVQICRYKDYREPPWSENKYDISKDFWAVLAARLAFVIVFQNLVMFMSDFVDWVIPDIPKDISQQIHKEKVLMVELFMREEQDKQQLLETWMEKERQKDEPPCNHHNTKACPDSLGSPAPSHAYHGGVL
Effect on: chloride current
Method: whole-cell patch clamp
Endpoint: normalised current
1 µM, 80 mV, 300 nM free Ca2+, added: honokiol and magnolol 10 µM: 0.451
30 µM, 100 mV, 300 nM free Ca2+, added: honokiol and magnolol 10 µM: 0.132
100 µM, 0 mV, 300 nM free Ca2+: -0.0004
10 µM, 0 mV, 300 nM free Ca2+: -0.0004
30 µM, -20 mV, 300 nM free Ca2+, added: honokiol and magnolol 10 µM: -0.0025
100 µM, 100 mV, 300 nM free Ca2+: 0.104 and 0.11
30 µM, -40 mV, 300 nM free Ca2+, added: honokiol and magnolol 10 µM: -0.0045
3 µM, 40 mV, 300 nM free Ca2+, added: honokiol and magnolol 10 µM: 0.0701

A few entries again (sample 3):
c1ccc2c(-c3ccncc3)c[nH]c2c1: 112%
N#Cc1cnc2cnc(NCc3cccnc3)cc2c1Nc1ccc(F)c(Cl)c1: 94.3%
O=C1Cc2c([nH]c3ccc(Br)cc23)-c2ccccc2N1: 83.2%
O=C1NC(=O)c2c1c1c3ccccc3[nH]c1c1[nH]c3cc(Br)ccc3c21: 55.8%
